Experimental data of several laboratories.
Compare with care: the assays were run in different laboratories. ± marks the error that the study gave.

CONC(=O)c1cccc2c1cc(C)n2-c1nc2c(c(NCc3ccccc3)n1)CCCN2  half-life (metabolic stability; rat, liver microsomes; 1 µM, pH 7.4): < 10 min
CCC(=O)c1ccc2c(c1)sc(=O)n2CCNC12CC3CC(CC(C3)C1)C2  half-life (metabolic stability; rat, liver microsomes; 1 µM, pH 7.4): 4.32 min
Cc1ccc(NC(=O)c2ccc(CN3CCN(C)CC3)cc2)cc1Nc1nccc(-c2cncc(-c3oncc3C)c2)n1  half-life (Parkinson's disease patients, plasma; oral, 50.0 mg once daily, day 7, 7-day dosing, mean): 1490 min
CN(CCn1c(=O)sc2ccccc21)C12CC3CC(CC(C3)C1)C2  half-life (metabolic stability; rat, liver microsomes; 1 µM, pH 7.4): 1.06 min
O=C(O)CCN1C(=O)/C(=C2/C(=O)Nc3ccc(Cl)cc32)SC1=S  half-life (mouse, plasma; intraperitoneal, 25 mg/kg, single dose): 571 min
CCCc1ccc2c(c1)sc(=O)n2CCNC12CC3CC(CC(C3)C1)C2  half-life (metabolic stability; rat, liver microsomes; 1 µM, pH 7.4): 2.46 min
COc1cccc(CN)c1O  half-life (male C57BL/6 mouse, brain; intraperitoneal, 200 mg/kg, single dose): 27.6 min
Cn1nnc2c(C(N)=O)ncn2c1=O  half-life (FVB mouse, plasma; intravenous, 50 mg/kg): 41.3 min
Oc1ccc(-c2nc(-c3ccc(Oc4ccc(C(F)(F)F)cc4)cc3)no2)cc1  half-life (CD-1 mouse, plasma; intravenous, 50 mg/kg, single dose): 1320 min
COc1cc(OC)c(/C=C/S(=O)(=O)Cc2ccc(OC)c(NCC(=O)O)c2)c(OC)c1  half-life (cancer patients, phase I, plasma; oral, 70 mg twice daily, day 1 cycle 1): 200 ± 144 min
CNCc1ccc(-c2[nH]c3cc(F)cc4c3c2CCNC4=O)cc1  half-life (human, fed high-fat meal, plasma; oral, 600 mg, single dose, arithmetic mean): 1010 min

Excerpt of the above:
CCCc1ccc2c(c1)sc(=O)n2CCNC12CC3CC(CC(C3)C1)C2  half-life (metabolic stability; rat, liver microsomes; 1 µM, pH 7.4): 2.46 min
